Measured values pooled from the literature.
A part holds a random share of what one study measured. Several values in a cell are separate wells, animals, samples, runs or records.
UniProt P11309, sequence (whole entry, looked up): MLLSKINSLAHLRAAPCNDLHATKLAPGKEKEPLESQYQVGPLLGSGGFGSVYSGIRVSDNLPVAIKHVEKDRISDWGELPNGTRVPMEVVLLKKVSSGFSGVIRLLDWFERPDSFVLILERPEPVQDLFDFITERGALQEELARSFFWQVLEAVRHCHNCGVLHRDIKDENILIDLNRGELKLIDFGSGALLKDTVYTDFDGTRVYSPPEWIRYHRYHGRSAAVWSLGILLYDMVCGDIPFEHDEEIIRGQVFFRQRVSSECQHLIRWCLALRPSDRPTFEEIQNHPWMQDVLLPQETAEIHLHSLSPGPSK
UniProt Q8TD08, sequence (whole entry, looked up): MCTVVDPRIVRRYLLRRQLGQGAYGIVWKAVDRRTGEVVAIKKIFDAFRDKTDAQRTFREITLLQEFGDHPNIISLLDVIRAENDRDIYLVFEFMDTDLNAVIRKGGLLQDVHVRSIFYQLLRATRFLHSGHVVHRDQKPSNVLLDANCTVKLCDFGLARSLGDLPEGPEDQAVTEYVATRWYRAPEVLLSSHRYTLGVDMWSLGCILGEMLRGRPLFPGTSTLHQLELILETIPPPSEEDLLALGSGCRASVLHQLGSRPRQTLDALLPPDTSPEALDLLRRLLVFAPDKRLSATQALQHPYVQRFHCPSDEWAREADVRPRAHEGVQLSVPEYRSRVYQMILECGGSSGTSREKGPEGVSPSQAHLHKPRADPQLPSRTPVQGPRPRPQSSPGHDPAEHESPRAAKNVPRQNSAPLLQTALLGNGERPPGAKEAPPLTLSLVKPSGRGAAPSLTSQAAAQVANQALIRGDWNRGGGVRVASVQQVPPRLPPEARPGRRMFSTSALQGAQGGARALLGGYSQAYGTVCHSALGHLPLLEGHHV
UniProt Q13163, sequence (whole entry, looked up): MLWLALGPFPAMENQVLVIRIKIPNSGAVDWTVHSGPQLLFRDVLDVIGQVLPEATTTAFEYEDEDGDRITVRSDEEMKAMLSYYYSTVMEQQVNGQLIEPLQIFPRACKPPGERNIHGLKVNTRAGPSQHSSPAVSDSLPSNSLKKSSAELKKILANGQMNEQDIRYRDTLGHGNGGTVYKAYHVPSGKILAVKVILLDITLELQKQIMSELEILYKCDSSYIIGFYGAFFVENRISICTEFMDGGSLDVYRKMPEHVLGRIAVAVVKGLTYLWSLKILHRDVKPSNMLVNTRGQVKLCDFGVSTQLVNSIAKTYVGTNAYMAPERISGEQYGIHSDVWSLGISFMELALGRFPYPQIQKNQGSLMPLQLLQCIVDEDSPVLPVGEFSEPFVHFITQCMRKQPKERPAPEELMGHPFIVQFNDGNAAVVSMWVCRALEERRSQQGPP
UniProt Q9H093, sequence (whole entry, looked up): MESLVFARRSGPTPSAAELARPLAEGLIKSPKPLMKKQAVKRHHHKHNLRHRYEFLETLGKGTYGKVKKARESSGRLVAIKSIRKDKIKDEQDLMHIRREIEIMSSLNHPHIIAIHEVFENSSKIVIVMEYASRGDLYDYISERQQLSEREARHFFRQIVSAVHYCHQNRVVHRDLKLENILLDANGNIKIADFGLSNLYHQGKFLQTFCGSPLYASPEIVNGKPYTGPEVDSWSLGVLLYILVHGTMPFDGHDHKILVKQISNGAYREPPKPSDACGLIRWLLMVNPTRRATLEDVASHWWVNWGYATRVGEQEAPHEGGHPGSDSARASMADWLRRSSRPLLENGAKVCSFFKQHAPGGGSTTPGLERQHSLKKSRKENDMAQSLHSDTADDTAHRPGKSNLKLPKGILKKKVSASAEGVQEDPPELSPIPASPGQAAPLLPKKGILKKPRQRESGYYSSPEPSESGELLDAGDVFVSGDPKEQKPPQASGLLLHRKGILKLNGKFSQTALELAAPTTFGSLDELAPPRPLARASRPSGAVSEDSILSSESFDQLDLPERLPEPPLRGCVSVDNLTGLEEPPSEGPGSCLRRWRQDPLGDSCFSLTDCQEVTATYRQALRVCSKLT

Sample 1
Compound: O=C1NC(=O)C(c2cn(-c3ccccc3)nc2-c2ccc(F)cc2)N1 (stereo not drawn)
Mode: inhibitor
Concentration: 5 µM
The “log2 fold change” was -0.256 (Testis-specific serine/threonine-protein kinase 2 (TSSK2, Homo sapiens, UniProt Q96PF2); kinase activity; cell-based kinome screen; reference: vehicle).
It gave -0.14 for “log2 fold change” (Serine/threonine-protein kinase pim-1 (PIM1, Homo sapiens, UniProt P11309); kinase-CDC37 interaction; human cells; reference: vehicle).
Tyrosine-protein kinase ITK/TSK (ITK, Homo sapiens, UniProt Q08881); cell-based kinome screen; human cells; reference: untreated control — “log2 fold change”: -0.723.
For RPS6KC1 (Homo sapiens, UniProt Q96S38); kinase-CDC37 interaction; human cells; reference: vehicle: “log2 fold change” read -0.16.
NUAK family SNF1-like kinase 2 (NUAK2, Homo sapiens, UniProt Q9H093); cell-based kinome screen; human cells; reference: untreated control — “log2 fold change”: -0.499.
It gave -0.32 for “log2 fold change” (EKC/KEOPS complex subunit TP53RK (TP53RK, Homo sapiens, UniProt Q96S44); kinase activity; cell-based kinome screen; reference: vehicle).
For MAPK/MAK/MRK overlapping kinase (MOK, Homo sapiens, UniProt Q9UQ07); kinase–CDC37 interaction; kinome plate 1@C06; reference: vehicle: “log2 fold change” read -0.126.
The “log2 fold change” was -0.085 (Membrane-associated tyrosine- and threonine-specific cdc2-inhibitory kinase (PKMYT1, Homo sapiens, UniProt Q99640); kinase–CDC37 interaction; kinome plate 5@B03; reference: vehicle).
It gave -0.063 for “log2 fold change” (Serine/threonine-protein kinase B-raf (BRAF, Homo sapiens, UniProt P15056, G466V); cell-based kinome profiling; human cells; reference: vehicle control).
It gave -0.342 for “log2 fold change” (Activin receptor type-2B (ACVR2B, Homo sapiens, UniProt Q13705); cell-based kinome profiling; human cells; reference: vehicle control).
For Dual specificity tyrosine-phosphorylation-regulated kinase 2 (DYRK2, Homo sapiens, UniProt Q92630); human cells; reference: vehicle: “log2 fold change” read -0.407.

Sample 2
Target: Calcium/calmodulin-dependent protein kinase type II subunit alpha (CAMK2A, Homo sapiens, UniProt Q9UQM7)
UniProt Q9UQM7, sequence (whole entry, looked up): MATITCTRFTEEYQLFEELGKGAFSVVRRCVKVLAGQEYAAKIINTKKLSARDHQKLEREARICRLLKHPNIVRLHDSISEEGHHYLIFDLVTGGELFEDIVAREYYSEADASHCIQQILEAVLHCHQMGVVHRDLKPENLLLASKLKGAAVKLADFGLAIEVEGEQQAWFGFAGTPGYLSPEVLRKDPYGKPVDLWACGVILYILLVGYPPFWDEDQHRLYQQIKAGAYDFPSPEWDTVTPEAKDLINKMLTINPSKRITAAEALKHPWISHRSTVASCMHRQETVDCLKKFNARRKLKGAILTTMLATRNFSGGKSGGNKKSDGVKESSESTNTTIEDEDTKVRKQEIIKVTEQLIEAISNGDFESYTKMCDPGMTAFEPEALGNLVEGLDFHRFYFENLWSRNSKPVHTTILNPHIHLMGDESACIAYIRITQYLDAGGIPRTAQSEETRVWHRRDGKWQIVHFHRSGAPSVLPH
Observed: enzyme activity
Mode: inhibitor
Concentration: 10 µM
OC1CCN2Cc3ccccc3N=C12 (racemic) gave an inhibition of 10%.
C=C1CC[C@@H]2[C@](C)(CO)[C@H](O)CC[C@@]2(C)[C@@H]1CCC1=CCOC1=O has an inhibition of -0.31% and -0.05%.
The inhibition of CC(=O)OC(C)(C)[C@@H]1Cc2c(ccc3ccc(=O)oc23)O1 is reported as -15%.
For N[C@@H](CCC(=O)N[C@@H](CS)C(=O)O)C(=O)O, the inhibition was 24%.
COc1ccc(CN2[C@@H]3C[C@H]2CN(c2ccc(-c4cc(OCC(C)(C)O)cn5ncc(C#N)c45)cn2)C3)cn1 gave an inhibition of 5%.
For CC(C)=CCC/C(C)=C/CC/C(C)=C/CC/C(C)=C/CC1=C(C)C(=O)c2ccccc2C1=O, the inhibition was -13%.
The inhibition of CNC1(C)C2CCC(C2)C1(C)C (stereo not drawn) is reported as -9%.
c1ccc2c(-c3nccs3)c[nH]c2c1 has an inhibition of 23%.
COC(=O)C1=C(C)NC(C)=C(C(=O)O[C@@H]2CCCN(Cc3ccccc3)C2)[C@@H]1c1cccc([N+](=O)[O-])c1 (racemic) has an inhibition of -5%.
C=C1C[C@@]23CC[C@H]4[C@@](C)(CCC[C@@]4(C)C(=O)O[C@@H]4O[C@H](CO)[C@@H](O)[C@H](O)[C@H]4O)[C@@H]2CC[C@]1(O[C@@H]1O[C@H](CO)[C@@H](O)[C@H](O)[C@H]1O)C3 gave an inhibition of -34%.
NC(N)=NCCCC[C@H](N)C(=O)O has an inhibition of -0.19% and -0.06%.

Sample 3
Structure (SMILES): COc1cc(-c2cn(C3CCc4c(F)cccc4N(CC(F)(F)F)C3=O)nn2)ccc1-n1cnc(C)c1 (stereo not drawn)
Observed: cell-free assay
Technique: competition with immobilised ligand
Concentration: 1 µM
Dual specificity mitogen-activated protein kinase kinase 3 (MAP2K3, Homo sapiens, UniProt P46734) — remaining binding: 100%.
For Dual specificity mitogen-activated protein kinase kinase 5 (MAP2K5, Homo sapiens, UniProt Q13163): remaining binding read 58%.
5'-AMP-activated protein kinase catalytic subunit alpha-2 (PRKAA2, Homo sapiens, UniProt P54646) — remaining binding: 100%.
For Serine/threonine-protein kinase SIK3 (SIK3, Homo sapiens, UniProt Q9Y2K2): remaining binding read 100%.
It gave 100% for remaining binding (MAP/microtubule affinity-regulating kinase 3 (MARK3, Homo sapiens, UniProt P27448)).
It gave 100% for remaining binding (Calcium/calmodulin-dependent protein kinase kinase 1 (CAMKK1, Homo sapiens, UniProt Q8N5S9)).
The remaining binding was 84% (Phosphatidylinositol 4,5-bisphosphate 3-kinase catalytic subunit gamma isoform (PIK3CG, Homo sapiens, UniProt P48736)).
The remaining binding was 100% (Mitogen-activated protein kinase kinase kinase 10 (MAP3K10, Homo sapiens, UniProt Q02779)).
It gave 92% for remaining binding (Mitogen-activated protein kinase 9 (MAPK9, Homo sapiens, UniProt P45984)).
Tyrosine-protein kinase JAK1, JH1 (JAK1, Homo sapiens, UniProt P23458) — remaining binding: 100%.
For Ribosomal protein S6 kinase alpha-1, N-terminal kinase domain (RPS6KA1, Homo sapiens, UniProt Q15418): remaining binding read 81%.
It gave 100% for remaining binding (Ephrin type-B receptor 4 (EPHB4, Homo sapiens, UniProt P54760)).
For Mitogen-activated protein kinase 15 (MAPK15, Homo sapiens, UniProt Q8TD08): remaining binding read 78%.
For Serine/threonine-protein kinase MARK2 (MARK2, Homo sapiens, UniProt Q7KZI7): remaining binding read 100%.
The remaining binding was 79% (Mitogen-activated protein kinase 12 (MAPK12, Homo sapiens, UniProt P53778)).
The remaining binding was 100% (Proto-oncogene tyrosine-protein kinase ROS (ROS1, Homo sapiens, UniProt P08922)).
High affinity nerve growth factor receptor (NTRK1, Homo sapiens, UniProt P04629) — remaining binding: 81%.
The remaining binding was 100% (Cyclin-dependent kinase 8 (CDK8, Homo sapiens, UniProt P49336)).
It gave 100% for remaining binding (Serine/threonine-protein kinase TAO2 (TAOK2, Homo sapiens, UniProt Q9UL54)).
Tyrosine-protein kinase JAK2, JH1 (JAK2, Homo sapiens, UniProt O60674) — remaining binding: 100%.
For Fibroblast growth factor receptor 3 (FGFR3, Homo sapiens, UniProt P22607, G697C): remaining binding read 100%.
It gave 100% for remaining binding (Myosin-IIIa (MYO3A, Homo sapiens, UniProt Q8NEV4)).
It gave 100% for remaining binding (Microtubule-associated serine/threonine-protein kinase 1 (MAST1, Homo sapiens, UniProt Q9Y2H9)).
For Hormonally up-regulated neu tumor-associated kinase (HUNK, Homo sapiens, UniProt P57058): remaining binding read 100%.
For Serine/threonine-protein kinase OSR1 (OXSR1, Homo sapiens, UniProt O95747): remaining binding read 100%.

Sample 4
Target: DNA polymerase theta, helicase domain (POLQ, Homo sapiens, UniProt O75417)
UniProt O75417, sequence (whole entry, looked up): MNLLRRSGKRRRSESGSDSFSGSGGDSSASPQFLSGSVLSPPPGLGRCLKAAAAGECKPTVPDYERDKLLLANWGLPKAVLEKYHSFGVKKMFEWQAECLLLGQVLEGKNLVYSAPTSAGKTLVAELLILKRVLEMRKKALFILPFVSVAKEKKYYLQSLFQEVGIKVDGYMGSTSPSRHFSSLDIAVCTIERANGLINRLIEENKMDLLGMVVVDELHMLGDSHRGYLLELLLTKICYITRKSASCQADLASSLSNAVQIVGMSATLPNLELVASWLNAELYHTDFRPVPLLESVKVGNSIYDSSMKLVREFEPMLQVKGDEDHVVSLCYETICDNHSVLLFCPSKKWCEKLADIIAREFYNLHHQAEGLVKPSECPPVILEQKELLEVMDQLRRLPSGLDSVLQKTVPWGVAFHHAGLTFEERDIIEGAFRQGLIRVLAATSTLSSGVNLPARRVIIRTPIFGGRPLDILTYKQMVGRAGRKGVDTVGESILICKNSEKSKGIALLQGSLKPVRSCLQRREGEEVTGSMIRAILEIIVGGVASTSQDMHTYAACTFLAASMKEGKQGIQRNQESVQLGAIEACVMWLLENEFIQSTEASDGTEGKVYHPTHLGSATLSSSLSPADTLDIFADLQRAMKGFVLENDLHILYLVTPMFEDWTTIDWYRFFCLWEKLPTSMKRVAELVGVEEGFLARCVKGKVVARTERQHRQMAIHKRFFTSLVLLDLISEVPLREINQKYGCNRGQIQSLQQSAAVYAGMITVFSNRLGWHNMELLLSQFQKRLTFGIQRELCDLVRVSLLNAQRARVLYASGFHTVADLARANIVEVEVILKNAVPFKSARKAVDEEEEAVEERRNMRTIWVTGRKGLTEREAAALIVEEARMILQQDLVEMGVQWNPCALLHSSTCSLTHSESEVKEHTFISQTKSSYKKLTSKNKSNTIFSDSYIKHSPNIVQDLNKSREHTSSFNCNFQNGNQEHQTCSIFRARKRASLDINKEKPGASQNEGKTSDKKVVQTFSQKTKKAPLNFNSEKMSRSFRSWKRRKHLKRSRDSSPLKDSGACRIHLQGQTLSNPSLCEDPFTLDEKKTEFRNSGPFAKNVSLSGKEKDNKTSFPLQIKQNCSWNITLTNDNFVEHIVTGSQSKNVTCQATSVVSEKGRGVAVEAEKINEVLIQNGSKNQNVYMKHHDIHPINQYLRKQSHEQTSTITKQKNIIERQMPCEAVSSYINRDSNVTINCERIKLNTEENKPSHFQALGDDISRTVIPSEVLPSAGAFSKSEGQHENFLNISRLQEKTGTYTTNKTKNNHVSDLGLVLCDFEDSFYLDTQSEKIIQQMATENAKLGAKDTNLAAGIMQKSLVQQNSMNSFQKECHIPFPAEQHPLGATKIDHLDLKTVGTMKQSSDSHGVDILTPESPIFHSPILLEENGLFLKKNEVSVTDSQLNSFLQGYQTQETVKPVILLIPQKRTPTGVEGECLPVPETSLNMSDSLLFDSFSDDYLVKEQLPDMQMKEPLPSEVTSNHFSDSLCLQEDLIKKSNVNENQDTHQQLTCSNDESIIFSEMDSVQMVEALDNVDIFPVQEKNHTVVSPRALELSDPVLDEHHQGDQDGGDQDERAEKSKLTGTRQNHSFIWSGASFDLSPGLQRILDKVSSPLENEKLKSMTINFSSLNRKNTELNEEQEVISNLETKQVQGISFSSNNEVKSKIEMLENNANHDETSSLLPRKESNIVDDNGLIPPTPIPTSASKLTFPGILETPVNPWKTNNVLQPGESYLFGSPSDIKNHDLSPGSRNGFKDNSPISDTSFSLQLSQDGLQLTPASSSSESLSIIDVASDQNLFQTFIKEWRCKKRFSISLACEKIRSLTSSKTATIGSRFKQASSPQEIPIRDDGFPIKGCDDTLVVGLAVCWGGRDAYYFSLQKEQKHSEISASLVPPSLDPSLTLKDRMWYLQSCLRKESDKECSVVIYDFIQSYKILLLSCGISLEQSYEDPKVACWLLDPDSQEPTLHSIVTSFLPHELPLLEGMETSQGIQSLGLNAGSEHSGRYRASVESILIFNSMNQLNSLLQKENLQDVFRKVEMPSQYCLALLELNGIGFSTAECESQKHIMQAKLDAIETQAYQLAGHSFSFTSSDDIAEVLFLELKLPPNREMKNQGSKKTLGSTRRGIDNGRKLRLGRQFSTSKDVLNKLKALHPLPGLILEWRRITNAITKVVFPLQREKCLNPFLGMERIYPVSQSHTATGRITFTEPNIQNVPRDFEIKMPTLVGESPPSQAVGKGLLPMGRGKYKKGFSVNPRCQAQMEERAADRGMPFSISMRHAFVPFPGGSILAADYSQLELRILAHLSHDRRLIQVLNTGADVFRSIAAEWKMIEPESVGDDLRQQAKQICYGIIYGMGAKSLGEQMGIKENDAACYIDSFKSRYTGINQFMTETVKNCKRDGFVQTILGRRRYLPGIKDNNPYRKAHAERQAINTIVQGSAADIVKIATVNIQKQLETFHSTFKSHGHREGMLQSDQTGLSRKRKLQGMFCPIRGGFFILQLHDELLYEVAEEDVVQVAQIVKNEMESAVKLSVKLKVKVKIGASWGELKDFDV
Mode: inhibitor
Concentration: concentration not given
Notes: absolute value
Added: with minus without ssDNA
N#CSc1cc(SC#N)c(N)nc1N — result for “difference in remaining activity”: 65.9%.
Under “difference in remaining activity”, CCCCCCCCCCCCc1ccc(S(=O)(=O)Nc2nncs2)cc1 is recorded as 10.2%.
CC(=O)[C@]1(O)Cc2c(O)c3c(c(O)c2[C@@H](O[C@H]2C[C@H](N)[C@H](O)[C@H](C)O2)C1)C(=O)c1ccccc1C3=O — result for “difference in remaining activity”: 42.2% and 41%.
Cc1ccc(C(=O)Nc2ccccc2C(=O)O)cc1S(=O)(=O)N1CCCCCC1 — result for “difference in remaining activity”: 4.13%.
CCOc1nc2cccc(C(=O)OCc3oc(=O)oc3C)c2n1Cc1ccc(-c2ccccc2-c2noc(=O)[nH]2)cc1: “difference in remaining activity” 12.4%.
Under “difference in remaining activity”, CCOc1cccc2c1N[C@@H](c1ccc(C(=O)O)cc1)[C@H]1CC=C[C@@H]21 is recorded as 15.7%.
CC[N+](C)(CC)CCC[n+]1c(-c2ccccc2)c2cc(N)ccc2c2ccc(N)cc21: “difference in remaining activity” 68.8%.
Under “difference in remaining activity”, COc1cc(NC(=O)CSc2ncc(S(=O)(=O)c3ccc(Br)cc3)c(=O)[nH]2)cc(OC)c1 is recorded as 16.7%.
CCCCCCCC/C=C\CCCCCCCC(=O)O: “difference in remaining activity” 1.57%.
For Cc1ccc(NC(=O)CSc2ncc(S(=O)(=O)c3ccc(C(C)C)cc3)c(=O)[nH]2)cc1C, “difference in remaining activity” read 14.8%.
COC(=O)[C@]12CCC(C)(C)C[C@H]1[C@H]1C(=O)C=C3[C@@]4(C)C=C(C#N)C(=O)C(C)(C)[C@@H]4CC[C@@]3(C)[C@]1(C)CC2: “difference in remaining activity” 47.2%.
COc1cc2c(cc1Cc1cccc(Cl)c1F)c(=O)c(C(=O)O)cn2[C@H](CO)C(C)C: “difference in remaining activity” 48.4%.
Under “difference in remaining activity”, O=C(Nc1ccccc1F)c1ccc2c(Cl)c3c(nc2c1)CCC3 is recorded as 4.23%.
COc1cccc2c1C(=O)c1c(O)c3c(c(O)c1C2=O)C[C@@](O)(C(=O)CO)C[C@@H]3O[C@H]1C[C@H](N)[C@H](O)[C@H](C)O1 — result for “difference in remaining activity”: 48%.
Under “difference in remaining activity”, O=C(O)/C(=C/c1c(C(=O)O)[nH]c2cc(Cl)cc(Cl)c12)c1ccccc1 is recorded as 67.5%.
For CCOc1ccccc1NC(=O)CSc1ncc(S(=O)(=O)c2ccc(C(C)(C)C)cc2)c(=O)[nH]1, “difference in remaining activity” read 1.63%.

Excerpt of the above (sample 3):
The remaining binding was 100% (Mitogen-activated protein kinase kinase kinase 10 (MAP3K10, Homo sapiens, UniProt Q02779)).
It gave 100% for remaining binding (MAP/microtubule affinity-regulating kinase 3 (MARK3, Homo sapiens, UniProt P27448)).
The remaining binding was 100% (Proto-oncogene tyrosine-protein kinase ROS (ROS1, Homo sapiens, UniProt P08922)).
For Serine/threonine-protein kinase OSR1 (OXSR1, Homo sapiens, UniProt O95747): remaining binding read 100%.
It gave 92% for remaining binding (Mitogen-activated protein kinase 9 (MAPK9, Homo sapiens, UniProt P45984)).
High affinity nerve growth factor receptor (NTRK1, Homo sapiens, UniProt P04629) — remaining binding: 81%.
